Measurements from different studies.
Each numbered part is a random draw from the data of one study; scales do not carry over between parts.

Sample 1
Target: Interferon regulatory factor 5, full length, phosphomimetic (IRF5, Homo sapiens, UniProt Q13568-2, residues 1-514, S451D/S453D/S456D/S462D)
Method: protein-binding microarray
Form: double-stranded DNA, one strand shown
Sample: in vitro
Concentration: 940 nM top
Setting: 60-bp whole probe
Together with: salmon DNA 0.4 mg/ml
Baseline: random background probes
Reading: higher = stronger binding
Shared flanks, not repeated: GCCTAGCAC … GTCTTGATTCGCTTGACGCTGCTG
Oligonucleotide	fitted relative affinity [z-score]
CTAGATTTCAGACTGGATTAGTGCTAG	-0.359
GACGGGTTCGACTATCGGGACGTGCTA	-0.246
TTAGGTTTCCCTTCCCTTTAGTGCTAG	2.56
TCAGATATCAGTTTCGATTAGTGCTAG	8.24
GACGATCTCAGACTTGAGACGTGCTAG	-0.45
TCAAAACTAAGTTTATTACTGTGCTAG	-0.0437
GACGGTTTCGACTTTCGGAACGTGCTA	7.35
GATGGTTTCGGGTATCGGGACGTGCTA	10.7
TCACACACCATTCTCGGACTGTGCTAG	1.1
GACGGTCTCCTTCTCCTGCCGTGCTAG	0.142
TCACTTCTATAGGCTAGAACTGTGCTA	0.0849
GACGAACTGCGGTTTCGAGACGTGCTA	1.67
GGACGAGCGACGGTGACACTGTGCTAG	-0.718
TGTGTCCTGGCTTTGACTCTGTGCTAG	-0.373
GACGGTCTCGGACTGAGGACGTGCTAG	0.612
TTAGGTATCCTGTTCCTTTAGTGCTAG	0.32

Sample 2
Target: Histone acetyltransferase KAT6A, winged helix 2, GST fusion (KAT6A, Homo sapiens, UniProt Q92794, residues 85-181)
Method: protein binding microarray
Form: double-stranded DNA, one strand shown
Sample: in vitro
Concentration: not given
Setting: 8-mer, flanks averaged, mean of 2 arrays, mostly near background
Baseline: not given
Reading: higher = stronger binding
Residues (chain): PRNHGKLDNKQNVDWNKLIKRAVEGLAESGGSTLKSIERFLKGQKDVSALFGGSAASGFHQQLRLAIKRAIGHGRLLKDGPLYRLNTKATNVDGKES
Oligonucleotide	E-score
ATACTTCA	-0.0577
ATGTTCAG	-0.191
GTTATGCA	-0.148
GGACACCC	-0.0521
CAATCTTC	0.153
GCGCGCCC	0.141
TCTCTTAA	-0.0513
CATCCTAA	0.0557
ACCATTAC	-0.123
ACTTTCGG	-0.235
ACTTTCTG	0.0666
TCACCAGA	-0.177
ATGTGTTG	0.0306
ATATAGAG	-0.182
ATGGTCTA	-0.216
ATAAAGGC	-0.0167
GCATTAGA	-0.00407
AATTCTAC	0.0555
CAGTGGGG	-0.0816
AACAACGC	0.0471
CCTTCGCG	0.111
CCTATCCG	-0.149
ATTGCAAA	0.00458
AGCGTGTG	-0.112
ATCAGGAT	0.146

Sample 3
Target: RNA binding protein fox-1 homolog 2, RRM domain, GST-SBP tag (RBFOX2, Homo sapiens, UniProt O43251-10, residues 100-194)
Method: RNA Bind-n-Seq
Form: RNA
Sample: in vitro
Concentration: 365 nM
Setting: natural RNA segment, single round, ends assumed
Baseline: no-protein control
Reading: higher = stronger binding
Shared flanks, not repeated: GGGAGUUCUACAGUCCGACGAUC … UGGAAUUCUCGGGUGCCAA
Target sequence (chain): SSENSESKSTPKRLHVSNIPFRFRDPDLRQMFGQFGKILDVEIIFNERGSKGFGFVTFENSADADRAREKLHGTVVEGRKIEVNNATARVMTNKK
Oligonucleotide	RBNS enrichment (R)
GGAGCCAGACAUUGGGAUGCACGCAUGUGAUUGUGUGUGCACGCAUGUGUGUGUGUGCACGCACUGGGCUGGGCCAAGUGACUGGACUCGCUUGGGAAACGGGCAGUGGU	9.86
AUGUUAAUUAGAAGGGGCUUUUGUACUCCAUUAAUGCUGUAUUUAGUUUACUAAUAGCUGCUCAGUUUGUCAGCUGAUAGUCUGAAUACUAUCAAAAACUAAGAACAUAG	0.385
AAAAGGCUUGUAUGUGUUAUCAUUUAAGGUCACUGUUCCCAAUUAAAAGCCUUCAACCAUGAUUUUCAUCAUUGGAAAUAGAAUUGAAUGGCCACCCUGUGUUGUGGGAA	0.722
GAAAUGUUUUAACAUCUGGAGCCUUUGUGGGUGGAAAUCUGUCUCCAAUUACAACUCUGCACUGGAUGUGAAGAAGCAAAAACUAUUCCGUCUACUCACAGAACAGUACU	0.242
UGAGGCCUCAGGACCACGGCAUGAUUUCAUGACUCCGAAGUAUUUUACAGAAACAUUUUUUAAAUAAGGGAAAUAUUUUAUAUACCAGAUGGUUCACAAGUGAUGGCUCA	0.713
AUGCUUAAACACAUUUAAUUGCUGUCAGAUUAAUUCCAUGAUCACUAAAGAGUUGCUGCUUUUUUCAUAUUUAUUUUUGUAAAUGAUUCUGUGCCCAGGAGCAGCUGGGG	0.423
UUCUACUGGAAUAGAAAUGAGUUUUAUCAUCUUUGAAAAAUAAUUCACUCUUGAAGUAAUAAACGUUAAAAAAAUGGGAUGCCUGCCUCUGUGACAGCCUUGUUUGCUGA	0.283
UCCUCUUUUAUAGCUAGCAUGGGAAAAUCCCAUCCCUAAUAAUUGUGGACUCUUGGCCCAGGAAUCCACAAUAAUAGCUAGUGGUAGAAUUGGGAUGUAGCCUGAUUAUA	0.322
CAGGCUUGACUUCCUAUGGUGUUAUUCUGGAACAUGCUGCCACGAGUCCCGGCUUUUGGAGUCCCAGCACACUUGAACUUGGAUUUGCCAUUCAGUAUUAAUAGAUCAUG	0.327
CCCACUCCGUACUGUAUUUUGCCAUUCUGCCGUAGCUAGAUGUUCUGUGGGGUUUGUUAACAUGGAACUACUCAGCUUUCUUUCAGUCAACCCAUAAGCAAAUCAGAUAA	1.4
CUAUAGGAGGCCAAGUGUUAGCUAUCCAGGGCCCCUCCACUGCUGCAGCCAGUGUGCUCUUGAAUAACAAGCAGGUUAAGGGGCUGGAGGAUCAGAAAGAUACCCCAGCU	0.254
UUCCUUUAAAAUAAUUGGGCCAUCCAUUCUCUGUCUCCAUUAUCGCUGUCAACAGAAGUUAUGGUUUGUAUGUGAGCCCUUUCCUCUCAACUGCUUUACUAAGGAGCAAU	0.34

Sample 4
Target: Prothrombin, mature alpha-thrombin (F2, Homo sapiens, UniProt P00734)
Method: aptamer microarray, sandwich
Form: DNA with 2'F-ANA
Sample: in vitro
Concentration: 200 nM
Setting: whole 15-mer aptamer, many near background
Together with: Cy3 exosite-II aptamer, 400 nM
Reading: higher = stronger binding
Oligonucleotide: GGTTGGTGTGGTTGG
Modification	mean fluorescence intensity [a.u.]
2'F-ANA at 2 3 6 10 12 13 14	270
2'F-ANA at 1 11 15	183
2'F-ANA at 1 2 4 5 8 12 13 15	78.7
2'F-ANA at 2 5 9 12 13 14	44.7
2'F-ANA at 1 3 7 11 14 15	90
2'F-ANA at 4 6 10 13 14 15	56.6
2'F-ANA at 5 9 10 11 12 13	50.3
2'F-ANA at 3 8 10 11 14	449
2'F-ANA at 1 2 4 5 6 9 10 12 13	48.2
2'F-ANA at 1 2 3 4 5 6 8 10 12 13 14 15	48.6
2'F-ANA at 3 9 12 14 15	661
2'F-ANA at 3 8 9 10 14 15	395
2'F-ANA at 1 2 3 5 6 7 10 12 14 15	54.6
2'F-ANA at 2 6 9 10 15	102
2'F-ANA at 1 4 5 10 12 14	43.5
2'F-ANA at 1 4 5 6 7 10 11 12 13	46.1
2'F-ANA at 1 4 5 7 8 14 15	98.1
2'F-ANA at 10 13	177
2'F-ANA at 3 6 7 9 11 12 13 14	637
2'F-ANA at 1 3 6 9 12 13 15	362
2'F-ANA at 1 3 6 12 14 15	111
2'F-ANA at 1 4 5 6 8 9 10 12 13	47.6
2'F-ANA at 2 3 4 5 6 7 8 9 10 13 15	56.8
2'F-ANA at 2 8 14	164
2'F-ANA at 1 4 6 10 11 12 13	52.8

Sample 5
Target: Ras GTPase-activating protein-binding protein 1, full length (G3BP1, Homo sapiens, UniProt Q13283)
Sequence of UniProt Q13283 (whole entry, looked up): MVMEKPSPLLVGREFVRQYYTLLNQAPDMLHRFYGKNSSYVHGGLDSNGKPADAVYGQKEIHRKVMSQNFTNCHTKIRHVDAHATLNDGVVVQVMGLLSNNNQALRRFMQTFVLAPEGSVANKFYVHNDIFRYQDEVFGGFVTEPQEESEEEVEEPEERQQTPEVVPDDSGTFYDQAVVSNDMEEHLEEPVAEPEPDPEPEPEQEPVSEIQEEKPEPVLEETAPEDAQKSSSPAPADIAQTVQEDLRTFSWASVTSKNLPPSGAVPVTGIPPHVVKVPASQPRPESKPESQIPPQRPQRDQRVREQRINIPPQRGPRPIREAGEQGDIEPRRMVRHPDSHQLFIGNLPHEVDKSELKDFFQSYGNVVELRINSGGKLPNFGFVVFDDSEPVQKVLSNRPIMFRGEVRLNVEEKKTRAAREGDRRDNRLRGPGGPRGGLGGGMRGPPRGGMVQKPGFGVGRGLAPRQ
Method: RNA Bind-n-Seq
Form: RNA
Sample: in vitro
Concentration: 200 nM
Setting: whole 134-nt RNA, ends assumed
Together with: 150 mM LiCl
Baseline: input library
Reading: higher = stronger binding
All molecules: 7-deaza-guanosine replaces G
Shared flanks, not repeated: GGGAGUUCUACAGUCCGACGAUC … UGGAAUUCUCGGGUGUCAAGG
Oligonucleotide	log2 enrichment
UCAAGUCCUGUGCUACACAUCGUAUGUACCGAAUCGGAGGUUUUUGGUUUUUGGAAAGUAUUAUGUUACGCCGUUCGGAUCUGCACUUCC	-0.463
UACUGCUCCUCAGCAGGAAGCGGAUGCUGAGGUGAACACAGAAACACUAAAUAAGUCCUCCCAGGGGAGCUCCUCGAGCACACAAUCAGC	0.986
CAAGUCCUGUGCUACACAUCGUAUGUACCGAAUCGGGGUUUGGUUUGGGGUUUGGAAAGUAUUAUGUUACGCCGUUCGGAUCUGCACUUC	-1.32
AAGUCCUGUGCUACACAUCGUAUGUACCGAAUCGGCCCCGGGGCCCCGGCCCCGGGAAAGUAUUAUGUUACGCCGUUCGGAUCUGCACUU	-1.59
CCUGUGCUACACAUCGUAUGUACCGAAUCGGGCCCCCCCGGCCCCCCCGGGCCCCCCCGGGAAAGUAUUAUGUUACGCCGUUCGGAUCUG	0.174
UAACUUUAGAGGAGGAUCUGAUGGAUAUGGCAGUGGACGUGGAUUUGGGGAUGGCUAUAAUGGGUAUGGAGGAGGACCUGGAGGUGGCAU	-0.0197
UCCUGUGCUACACAUCGUAUGUACCGAAUCAAACCCCCCCAAACCCAAACCCCCCCAAAAAAGUAUUAUGUUACGCCGUUCGGAUCUGCA	-0.536
UGUGCUACACAUCGUAUGUACCGAAUCGGGGAAAAAAAGGGAAAAAAAGGGGAAAAAAAGGGAAAGUAUUAUGUUACGCCGUUCGGAUCU	0.468
UAACUUUAGAGGAGGAUCUGAUGGAUAUGGCAGUCGACGUGGAUUUGGGGAUGGCUAUAAUGGGUAUGGAGGAGGACCUGGAGGUGGCAA	-0.357
AGUCCUGUGCUACACAUCGUAUGUACCGAAUCGGGUUUUUUUGGGAAAAAGGGUGGGAAAGUAUUAUGUUACGCCGUUCGGAUCUGCACU	-1.91
CACAGACAACACGCACCCACACAGACACAGUGGGAAGGGGUUGGGAUGGGGACAGGGUGCACAGCAGGGCGGGGUAGGACCCCAGCCCCU	-1.06

Repeated from above (sample 1):
Oligonucleotide	fitted relative affinity [z-score]
TGTGTCCTGGCTTTGACTCTGTGCTAG	-0.373
TCACTTCTATAGGCTAGAACTGTGCTA	0.0849
TCAGATATCAGTTTCGATTAGTGCTAG	8.24
GATGGTTTCGGGTATCGGGACGTGCTA	10.7
GACGGGTTCGACTATCGGGACGTGCTA	-0.246
GACGAACTGCGGTTTCGAGACGTGCTA	1.67
GACGGTCTCCTTCTCCTGCCGTGCTAG	0.142
GGACGAGCGACGGTGACACTGTGCTAG	-0.718
CTAGATTTCAGACTGGATTAGTGCTAG	-0.359
GACGGTTTCGACTTTCGGAACGTGCTA	7.35
GACGATCTCAGACTTGAGACGTGCTAG	-0.45
